Published values from different studies.
Protocols differ between the studies behind these lines. ± gives the spread as reported.

[11CH3]N1CCC(NC(=O)c2cc(-c3c(O)cc(O)cc3Oc3ccc([N+](=O)[O-])cc3)on2)CC1 — tissue uptake (Wistar rat, female, healthy, lungs; intravenous, 30 min): 0.6 ± 0.1 %ID
COc1cccc(OC)c1-c1cc(C(=O)NC2(C(=O)O)C3CC4CC(C3)CC2C4)nn1-c1ccc(C(=O)N(C)CCOCCN(C)C(=O)[C@H](CCCCNC(=O)[C@H](CC(C)C)NC(=O)C2OC2C(=O)O)NC(=O)CN2CCN(CC(=O)[O-])CCN(CC(=O)[O-])CCN(CC(=O)[O-])CC2)cc1C(C)C.[177Lu+3] (mixture of isomers) — tissue uptake (mouse, HT-29 xenograft, muscle; 24 h post injection): 0.7 %ID/g
O=C(O)CCCOc1ccc([18F])cc1-c1cc(-c2ccccc2C(F)(F)F)n(-c2ccccc2)n1 — tissue uptake (mouse, blood; intravenous, dose not given, 360 min): 0.19 ± 0.01 %ID/g
CCCC[C@H](NC(=O)CNC(=O)CNC(=O)[C@H](CCCCNC(=O)[C@H](CC(=O)O)NC(=O)C(C)c1ccc(CC(C)C)cc1)NC(=O)CN1CCN(CC(=O)O)CCN(CC(=O)O)CCN(CC(=O)O)CC1)C(=O)N[C@H]1CC(=O)NCCCC[C@@H](C(N)=O)NC(=O)[C@H](Cc2c[nH]c3ccccc23)NC(=O)[C@H](CCCNC(=N)N)NC(=O)[C@@H](Cc2ccccc2)NC(=O)[C@H](Cc2c[nH]cn2)NC1=O (stereo partly drawn) [lutetium-177 labelled] — tissue uptake (C57 mouse, stomach; intravenous, 2 h, added: 10 µg NDP-MSH co-injection): 1.16 ± 0.23 %ID/g
Cc1cc(C)n(CCN(CCN)CCCCCCNC(=O)[C@@H](N)Cc2c[nH]cn2)n1.[99Tc+].[C-]#[O+].[C-]#[O+].[C-]#[O+] — tissue uptake (BALB/c nude mice, MCF7 xenograft, kidney; intravenous, 15 min): 30.6 ± 1.62 %IA/g
N#C[C@@H]1CCCN1C(=O)CNC(=O)c1ccnc2ccc(OCCCN3CCN(C(=O)CCc4ccc5c(c4)CN4CCN(Cc6cc(CCC(=O)O)ccc6O)CC(=O)[O][Al-]([18F])([O]C(=O)C4)[O]5)CC3)cc12 (stereo partly drawn) — tissue uptake (BALB/c nude mice, U-87 MG xenograft, blood; 1 h, blocking, added: DOTA-FAPI-04 40 nmol/mouse co-injected): 0.23 ± 0.03 %ID/g
COc1cccc(OC)c1-c1cc(C(=O)NC2(C(=O)O)C3CC4CC(C3)CC2C4)nn1-c1ccc(C(=O)N(C)CCCN(C)C(=O)[C@H](CCCCNC(=O)[C@H](CC(C)C)NC(=O)C2OC2C(=O)O)NC(=O)CN2CCN(CC(=O)[O-])CCN(CC(=O)[O-])CCN(CC(=O)[O-])CC2)cc1C(C)C.[177Lu+3] (mixture of isomers) — tissue uptake (mouse HT-29 xenograft, large intestine; 4 h post injection, biodistribution): 0.68 %ID/g
N#C[C@@H]1CC(F)(F)CN1C(=O)CNC(=O)c1ccnc2c(NC(=O)[C@H](CCCCNC(=O)CCOCCOCCOCCOCCOCCOCCNC(=O)CN3CCN(CC(=O)[O-])CCN(CC(=O)[O-])CCN(CC(=O)[O-])CC3)NC(=O)CCCc3ccc(I)cc3)cccc12.[177Lu+3] — tissue uptake (mouse, U-87 MG tumour xenograft, brain; 48 h): 0.07 ± 0.08 %ID/g
O=C(NCC1OC2CCC=CCCC2O1)c1ccc([18F])nc1 (stereo not drawn) — tissue uptake (healthy female BALB/c nude mice, small intestine; intravenous, 7.4 MBq per mouse, 120 min): 4.8 ± 0.2 %ID/g
COc1cccc(OC)c1-c1cc(C(=O)NC2(C(=O)O)C3CC4CC(C3)CC2C4)nn1-c1ccc(C(=O)NCCNC(=O)[C@H](CCCCNC(=O)[C@H](CC(C)C)NC(=O)C2OC2C(=O)O)NC(=O)CN2CCN(CC(=O)[O-])CCN(CC(=O)[O-])CCN(CC(=O)[O-])CC2)cc1C(C)C.[177Lu+3] (mixture of isomers) — tissue uptake (mouse, HT-29 xenograft, heart; 72 h post injection): 0.11 %ID/g
O=C(NCC1OC2CCC=CCCC2O1)c1ccc(COCCOCCOCC[18F])cc1 (stereo not drawn) — tissue uptake (healthy female BALB/c nude mice, heart; intravenous, 7.4 MBq per mouse, 60 min): 2.3 ± 0.2 %ID/g
CCCC[C@H](NC(=O)COCCOCCNC(=O)CN1CCN(CC(=O)O)CCN(CC(=O)O)CC1)C(=O)N[C@H]1CC(=O)NCCCC[C@@H](C(N)=O)NC(=O)[C@H](Cc2c[nH]c3ccccc23)NC(=O)[C@H](CCCNC(=N)N)NC(=O)[C@@H](Cc2ccccc2)NC(=O)[C@H](Cc2c[nH]cn2)NC1=O [fluorine-18 labelled] — tissue uptake (C57 mice B16-F10 melanoma, muscle; intravenous, 0.37 MBq, 1 h): 0.31 ± 0.07 %ID/g
N#C[C@@H]1CC(F)(F)CN1C(=O)CNC(=O)c1ccnc2c(NC(=O)[C@@H](N)CCCCNC(=O)CCOCCOCCOCCOCCOCCOCCNC(=O)CN3CCN(CC(=O)[O-])CCN(CC(=O)[O-])CCN(CC(=O)[O-])CC3)cccc12.[177Lu+3] — tissue uptake (mouse, U-87 MG tumour xenograft, spleen; 1 h): 0.22 ± 0.07 %ID/g
COc1cccc(OC)c1-c1cc(C(=O)NC2(C(=O)O)C3CC4CC(C3)CC2C4)nn1-c1ccc(C(=O)N(C)CCCN(C)CCCN(C)C(=O)[C@H](CCCCNC(=O)[C@H](CC(C)C)NC(=O)C2OC2C(=O)O)NC(=O)CN2CCN(CC(=O)[O-])CCN(CC(=O)[O-])CCN(CC(=O)[O-])CC2)cc1C(C)C.[177Lu+3] (mixture of isomers) — tissue uptake (mouse, HT-29 xenograft, brain; 24 h post injection): 0.07 %ID/g
N#C[C@@H]1CC(F)(F)CN1C(=O)CNC(=O)c1ccnc2c(NC(=O)CCOCCOCCOCCOCCOCCOCCNC(=O)[C@H](CCCCNC(=O)CN3CCN(CC(=O)[O-])CCN(CC(=O)[O-])CCN(CC(=O)[O-])CC3)NC(=O)CCCc3ccc(I)cc3)cccc12.[177Lu+3] — tissue uptake (mouse, U-87 MG tumour xenograft, lung; 48 h): 0.49 ± 3.6 %ID/g
COc1ccc(Nc2nc(Nc3ccc(OCCOCC[18F])cc3)ncc2Br)cc1 — tissue uptake (ICR mice, S180 tumour-bearing, lung; intravenous, 370 kBq, 5 min): 10.4 ± 0.52 %ID/g
CCCC[C@H](NC(=O)CCCCCCCNC(=O)CN1CCN(CC(=O)O)CCN(CC(=O)O)CC1)C(=O)N[C@H]1CC(=O)NCCCC[C@@H](C(N)=O)NC(=O)[C@H](Cc2c[nH]c3ccccc23)NC(=O)[C@H](CCCNC(=N)N)NC(=O)[C@@H](Cc2ccccc2)NC(=O)[C@H](Cc2c[nH]cn2)NC1=O [fluorine-18 labelled] — tissue uptake (C57 mice B16-F10 melanoma, heart; intravenous, 0.37 MBq, 2 h): 0.45 ± 0.05 %ID/g
[123I]c1ccc2nc(-c3ccc(-n4ccnn4)nc3)cn2c1 — tissue uptake (Wistar rat, brain; intravenous, 14 h): not detected

A few entries again:
N#C[C@@H]1CC(F)(F)CN1C(=O)CNC(=O)c1ccnc2c(NC(=O)[C@@H](N)CCCCNC(=O)CCOCCOCCOCCOCCOCCOCCNC(=O)CN3CCN(CC(=O)[O-])CCN(CC(=O)[O-])CCN(CC(=O)[O-])CC3)cccc12.[177Lu+3] — tissue uptake (mouse, U-87 MG tumour xenograft, spleen; 1 h): 0.22 ± 0.07 %ID/g
CCCC[C@H](NC(=O)CCCCCCCNC(=O)CN1CCN(CC(=O)O)CCN(CC(=O)O)CC1)C(=O)N[C@H]1CC(=O)NCCCC[C@@H](C(N)=O)NC(=O)[C@H](Cc2c[nH]c3ccccc23)NC(=O)[C@H](CCCNC(=N)N)NC(=O)[C@@H](Cc2ccccc2)NC(=O)[C@H](Cc2c[nH]cn2)NC1=O [fluorine-18 labelled] — tissue uptake (C57 mice B16-F10 melanoma, heart; intravenous, 0.37 MBq, 2 h): 0.45 ± 0.05 %ID/g
